Experimental data collected from several papers.
“And” joins repeats or separate records; there may be more than shown. ± gives the spread as reported.

SMILES	test	system	conditions	how to read	quantity	value
C=CC(=O)Nc1cc(Nc2nccc(-c3cn(C)c4ccccc34)n2)c(OCC(F)(F)F)nc1NC	LC-MS	human liver microsomes	3 µM, 60 min, added: sulfaphenazole 6 µM	relative to: no inhibitor	remaining parent compound	62%
CCCC1OC2CC3C4CCC5=CC(=O)C=CC5(C)C4C(O)CC3(C)C2(C(=O)COC(=O)CN(CC)CC)O1 (centres unmarked)	–	aqueous buffer	200 µg/mL, 48 h, pH 1.2, 37 °C	–	remaining conjugate	93.3%
COC(=O)c1ccc2c(c1)NC(=O)/C2=C(\Nc1ccc2c(c1)CCN2C(=O)CN1CCOCC1)c1ccccc1	–	SD rat plasma	1 µM, 4 h, 37 °C	–	remaining compound	67% and 67.2%
CCCC(CCC)NC(=O)c1ccc(O)c(OC)c1	–	rat liver microsomes	1.0 µM, 60 min, pH 7.4	–	remaining parent compound	55.7%
COc1c2c(cc3oc(C)cc(=O)c13)O[C@H](C(C)(C)O[C@@H]1O[C@H](CO)[C@@H](O)[C@H](O)[C@H]1O)C2	–	simulated intestinal fluid with pancreatin	220.99 nmol/L, 2 h, pH 6.8, 37 °C	–	remaining concentration	120 nmol/mL
[11CH3]Oc1ccc(Cc2cn[nH]c2)nc1-c1cccc([N+](=O)[O-])c1	–	human plasma in vitro	30 min, room temperature	–	remaining parent	96 ± 0.4%
COc1cc(NC(C)=O)c2c(c1O)-c1c(OC)c(OC)cc3c1C(C2)N(C)CC3 (centres unmarked)	–	rat liver homogenate	100 µg/mL, time not given, three freeze-thaw cycles	–	remaining compound	103 ± 1.5%
C=CC(=O)Nc1cc(Nc2nccc(-c3cn(C)c4ccccc34)n2)c(O)nc1N(C)CCN(C)C	LC-MS	human liver microsomes	3 µM, 60 min, added: sulfaphenazole 6 µM	relative to: no inhibitor	remaining parent compound	92%
O=C([O-])CN1CCN(CC(=O)[O-])CC(Cc2ccc(NC(=S)NCCOCCOCCOCCOCCOCCOCCOCCNC(=O)CCCC(=O)NCc3ccc(-c4nncnn4)cc3)cc2)N(CC(=O)[O-])CC1.[64Cu+2] (centres unmarked)	–	PBS	4 h, pH 7.4, 37 °C	–	remaining intact compound	83.2 ± 4.6%
O=C([O-])CN1CCN(CC(=O)[O-])CCN(CC(=O)NCCc2ccc3c(c2)C2C=CCC2C(c2cc4c(cc2Br)OCO4)N3)CCN(CC(=O)[O-])CC1.[111In+3] (centres unmarked)	–	PBS	up to 4 days, pH 7.4, 37 °C, In(III) complex	–	remaining intact compound	> 90%
CNC(=O)c1ccc(N2CCN(Cc3ccc4nc(C)c(=O)[nH]c4c3F)CC2)c([18F])n1	–	human liver microsomes	90 min	–	remaining intact tracer	> 95%
CN(Cc1ccc(F)cc1)Cc1cc(=O)oc2cc(O)ccc12	–	human serum	0.5 mM, 0 min	–	remaining intact compound	> 99%
C=C1C[C@@]23CC[C@H]4[C@@](C)(CCC[C@@]4(C)C(=O)O[C@@H]4O[C@H](CO)[C@@H](O)[C@H](O)[C@H]4O)[C@@H]2CC[C@]1(O[C@@H]1O[C@H](CO[C@H]2O[C@H](CO)[C@@H](O)[C@H](O)[C@H]2O)[C@@H](O)[C@H](O)[C@H]1O[C@@H]1O[C@H](CO)[C@@H](O)[C@H](O)[C@H]1O)C3	–	aqueous solution	1% w/v, 1 months, 25 °C	relative to: initial	remaining concentration	> 95%
CC(=O)N[C@H](C(=O)N[C@H](C(=O)N[C@@H](CCCNC(=N)N)C(=O)N[C@@H](CC(N)=O)C(=O)N[C@@H](CC(=O)O)C(=O)N[C@H](C(=O)N1CCC[C@@H]1C(=O)N1CCC[C@H]1C(=O)N[C@@H](CC(=O)O)C(=O)N[C@@H](CO)C(=O)N[C@@H](CC(C)C)C(=O)N[C@@H](CC(C)C)C(=O)N[C@H](C(=O)N[C@@H](Cc1ccccc1)C(N)=O)C(C)C)C(C)C)[C@@H](C)O)C(C)C	mass spectrometry	culture medium with HEK293T cells	24 h, 10% FBS	relative to: time zero	remaining peptide	~50%
C=CC(=O)Nc1cc(Nc2nccc(-c3cn(C)c4ccccc34)n2)c(OCC(F)(F)F)nc1NCCN(C)C	LC-MS	human liver microsomes	3 µM, 60 min, added: quercetin 20 µM	relative to: no inhibitor	remaining parent compound	53%
N[C@@H](CO)C(=O)N1CCC[C@H]1C(=O)NCC(=O)NCC(=O)O	ESI-MS	1-propanol, 0.5% acetic acid	5 µM, 90 min, 70 °C, diketopiperazine formation	–	remaining peptide	58%
CCCC(CCC)NC(=O)c1ccc(OC)c(O)c1	–	rat liver microsomes	1.0 µM, 60 min, pH 7.4	–	remaining parent compound	47.7%
C=CC(=O)Nc1cc(Nc2nccc(-c3cn(C)c4ccccc34)n2)c(OCC(F)(F)F)nc1N(C)CCNC	LC-MS	human liver microsomes	3 µM, 60 min, added: ticlopidine 24 µM	relative to: no inhibitor	remaining parent compound	62%
CSCC(NC(=O)c1cc(Cl)ccc1Cl)C(=O)NC(CC(C)C)B(O)O (centres unmarked)	–	rat liver microsomes	3 µM, 60 min, pH 7.4, added: NADPH	–	remaining compound	61 ± 0.44%
C=CC(=O)Nc1cc(Nc2nccc(-c3cn(C)c4ccccc34)n2)c(OCC(F)(F)F)nc1N(C)CCN(C)C	LC-MS	human liver microsomes	3 µM, 60 min, added: quercetin 20 µM	relative to: no inhibitor	remaining parent compound	92%
CC[C@H](C)[C@H](NC(=O)CNC(=O)CNC(=O)c1ccc2c(c1)C(=O)OC21c2ccc(O)cc2Oc2cc(O)ccc21)C(=O)N[C@@H](Cc1ccc(O)cc1)C(=O)N[C@@H](C)C(=O)N(C)CC(=O)N1CCC[C@H]1C(=O)N(C)[C@@H](Cc1ccccc1)C(=O)N[C@@H](CCCCN)C(=O)N[C@@H](CCCCN)C(=O)N[C@@H](CCCCN)C(N)=O	CE-LIF	Baf/BCR-ABL cytosolic lysate	1 µM, 60 min, 37 °C	–	remaining peptide	32 ± 3%
Cn1cc(-c2ccnc(N)n2)c2ccccc21	LC-MS	human liver microsomes	3 µM, 60 min, added: sulfaphenazole 6 µM	relative to: no inhibitor	remaining parent compound	88%
CC(C)Oc1ncnc2c1c(Cl)cn2[C@@H]1O[C@H](CO)[C@@H](O)[C@H]1O	–	horse liver microsomes	30 min	–	remaining parent compound	≥ 50%

Some of these lines once more:
SMILES	test	system	conditions	how to read	quantity	value
CC(C)Oc1ncnc2c1c(Cl)cn2[C@@H]1O[C@H](CO)[C@@H](O)[C@H]1O	–	horse liver microsomes	30 min	–	remaining parent compound	≥ 50%
COC(=O)c1ccc2c(c1)NC(=O)/C2=C(\Nc1ccc2c(c1)CCN2C(=O)CN1CCOCC1)c1ccccc1	–	SD rat plasma	1 µM, 4 h, 37 °C	–	remaining compound	67% and 67.2%
C=CC(=O)Nc1cc(Nc2nccc(-c3cn(C)c4ccccc34)n2)c(OCC(F)(F)F)nc1N(C)CCNC	LC-MS	human liver microsomes	3 µM, 60 min, added: ticlopidine 24 µM	relative to: no inhibitor	remaining parent compound	62%
